Measurements of several laboratories.
Every numbered part comes from another study and shows a few of its results, in no order.
UniProt P0C1S8, sequence (whole entry, looked up): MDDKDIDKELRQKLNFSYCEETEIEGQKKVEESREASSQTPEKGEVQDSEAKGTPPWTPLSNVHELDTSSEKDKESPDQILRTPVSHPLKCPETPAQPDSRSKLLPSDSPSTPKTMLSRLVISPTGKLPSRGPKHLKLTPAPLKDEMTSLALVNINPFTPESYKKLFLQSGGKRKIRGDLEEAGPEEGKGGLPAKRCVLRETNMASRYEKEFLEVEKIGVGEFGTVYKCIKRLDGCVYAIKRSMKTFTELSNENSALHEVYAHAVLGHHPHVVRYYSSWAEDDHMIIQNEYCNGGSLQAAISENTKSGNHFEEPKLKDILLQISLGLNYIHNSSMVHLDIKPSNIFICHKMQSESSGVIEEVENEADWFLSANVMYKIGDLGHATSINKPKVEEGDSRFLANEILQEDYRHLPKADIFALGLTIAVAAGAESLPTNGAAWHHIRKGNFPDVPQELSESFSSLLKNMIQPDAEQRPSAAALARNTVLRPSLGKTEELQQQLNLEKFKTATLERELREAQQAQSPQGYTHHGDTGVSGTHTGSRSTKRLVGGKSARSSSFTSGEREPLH
UniProt P62344, sequence (whole entry, looked up): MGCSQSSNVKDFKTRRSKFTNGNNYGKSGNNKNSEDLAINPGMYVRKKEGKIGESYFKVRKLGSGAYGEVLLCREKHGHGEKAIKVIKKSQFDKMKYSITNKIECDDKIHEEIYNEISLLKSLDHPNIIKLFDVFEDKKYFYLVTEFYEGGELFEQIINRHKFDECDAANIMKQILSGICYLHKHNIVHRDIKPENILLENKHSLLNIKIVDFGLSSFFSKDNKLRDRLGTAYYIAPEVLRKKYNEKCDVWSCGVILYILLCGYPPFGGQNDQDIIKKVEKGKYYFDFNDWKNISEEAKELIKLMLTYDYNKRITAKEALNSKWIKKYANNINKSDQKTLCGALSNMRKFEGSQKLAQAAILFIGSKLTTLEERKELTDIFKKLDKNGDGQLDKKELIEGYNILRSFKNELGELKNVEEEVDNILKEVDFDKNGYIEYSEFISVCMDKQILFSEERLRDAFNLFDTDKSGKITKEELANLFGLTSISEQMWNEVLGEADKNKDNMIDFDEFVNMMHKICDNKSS
UniProt P21860, sequence (whole entry, looked up): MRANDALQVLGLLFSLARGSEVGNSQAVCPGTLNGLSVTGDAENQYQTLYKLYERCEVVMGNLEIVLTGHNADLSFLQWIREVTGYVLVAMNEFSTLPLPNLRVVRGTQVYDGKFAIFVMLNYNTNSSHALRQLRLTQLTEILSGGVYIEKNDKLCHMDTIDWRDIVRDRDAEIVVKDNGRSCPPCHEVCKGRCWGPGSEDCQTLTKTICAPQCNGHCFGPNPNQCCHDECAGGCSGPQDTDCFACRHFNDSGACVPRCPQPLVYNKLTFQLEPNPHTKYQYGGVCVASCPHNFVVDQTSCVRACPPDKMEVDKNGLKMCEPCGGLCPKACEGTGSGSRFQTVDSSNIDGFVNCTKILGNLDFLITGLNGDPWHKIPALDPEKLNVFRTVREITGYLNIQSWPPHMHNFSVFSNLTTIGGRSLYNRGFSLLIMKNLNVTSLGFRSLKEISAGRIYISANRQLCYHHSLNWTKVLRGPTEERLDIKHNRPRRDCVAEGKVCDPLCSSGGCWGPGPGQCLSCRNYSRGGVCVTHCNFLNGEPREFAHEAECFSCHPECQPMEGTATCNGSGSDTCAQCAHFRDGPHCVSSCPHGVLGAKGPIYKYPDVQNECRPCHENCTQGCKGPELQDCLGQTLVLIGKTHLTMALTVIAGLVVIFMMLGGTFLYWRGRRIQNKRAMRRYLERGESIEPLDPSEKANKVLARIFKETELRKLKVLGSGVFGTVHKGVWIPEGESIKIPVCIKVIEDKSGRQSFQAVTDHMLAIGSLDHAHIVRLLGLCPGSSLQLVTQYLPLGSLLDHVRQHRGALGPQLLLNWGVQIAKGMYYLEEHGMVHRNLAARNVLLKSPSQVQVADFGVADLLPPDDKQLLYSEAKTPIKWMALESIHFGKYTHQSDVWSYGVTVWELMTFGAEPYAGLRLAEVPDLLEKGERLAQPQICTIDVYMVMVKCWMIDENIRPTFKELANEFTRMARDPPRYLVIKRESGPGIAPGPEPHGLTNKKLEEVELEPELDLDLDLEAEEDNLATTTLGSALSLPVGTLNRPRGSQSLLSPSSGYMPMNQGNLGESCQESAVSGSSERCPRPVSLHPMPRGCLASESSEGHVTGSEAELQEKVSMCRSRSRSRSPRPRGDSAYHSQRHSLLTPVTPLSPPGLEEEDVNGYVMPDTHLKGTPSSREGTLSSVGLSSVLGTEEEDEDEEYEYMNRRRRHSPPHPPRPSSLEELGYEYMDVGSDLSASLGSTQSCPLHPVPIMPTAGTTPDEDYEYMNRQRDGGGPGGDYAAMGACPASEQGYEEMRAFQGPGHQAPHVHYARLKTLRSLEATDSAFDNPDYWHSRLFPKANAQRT
UniProt Q9BYT3, sequence (whole entry, looked up): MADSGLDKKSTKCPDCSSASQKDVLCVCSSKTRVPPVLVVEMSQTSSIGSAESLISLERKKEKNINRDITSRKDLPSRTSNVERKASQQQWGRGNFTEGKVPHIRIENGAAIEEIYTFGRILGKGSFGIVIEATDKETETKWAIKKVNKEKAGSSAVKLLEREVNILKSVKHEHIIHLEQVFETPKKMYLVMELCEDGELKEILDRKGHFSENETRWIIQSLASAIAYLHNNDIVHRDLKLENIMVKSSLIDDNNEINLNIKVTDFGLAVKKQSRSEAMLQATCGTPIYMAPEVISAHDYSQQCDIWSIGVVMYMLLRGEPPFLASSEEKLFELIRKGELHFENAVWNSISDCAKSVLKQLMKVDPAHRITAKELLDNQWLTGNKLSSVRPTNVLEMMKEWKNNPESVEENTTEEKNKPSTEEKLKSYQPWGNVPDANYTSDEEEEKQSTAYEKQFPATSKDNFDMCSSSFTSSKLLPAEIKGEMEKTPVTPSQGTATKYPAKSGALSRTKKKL

Study 1 — cell line: U-87 MG; tested at: concentration not given; relative to: DMSO
Structure (SMILES): CCN1/C(=C/C=C2\CCCC(/C=C/C3=[N+](CC)c4ccccc4C3(C)C)=C2NCCCCCCCCN2CCC(Nc3nc4ccccc4n3Cc3ccc(F)cc3)CC2)C(C)(C)c2ccccc21
refers to | log2 fold change
KCNE4 mRNA | -1.49
MXD1 mRNA | 2.27
PRR7 mRNA | -1.38
ZNF841 mRNA | 0.891
KIF21B mRNA | -1.39
MARCHF4 mRNA | -1.3
CACNA2D3 mRNA | -3.27
P3H3 | -1.11
TREM1 mRNA | 2.9
SGCD mRNA | -3.2
HECA mRNA | 1.22

Study 2 — tested at: 1 µM
Structure (SMILES): CC[C@@]1(c2ccccc2)C2=C(CC(C)(C)CC2=O)Nc2n[nH]cc21
target | observed | technique | relative to | remaining binding [%]
ALK (Homo sapiens, UniProt Q9UM73) | binding | competition with immobilised ligand |  | 79
SRC (Homo sapiens, UniProt P12931) | binding | competition with immobilised ligand |  | 100
Tyrosine-protein kinase ABL1, phosphorylated (ABL1, Homo sapiens, UniProt P00519, T315I) | kinase binding | KINOMEscan | DMSO control | 100
EGFR (Homo sapiens, UniProt P00533, G719C) | kinase binding | KINOMEscan | DMSO control | 100
MARK3 (Homo sapiens, UniProt P27448) | kinase binding | KINOMEscan | DMSO control | 90
NEK3 (Homo sapiens, UniProt P51956) | kinase binding | KINOMEscan | DMSO control | 84
BMX (Homo sapiens, UniProt P51813) | binding | competition with immobilised ligand |  | 100
EGFR (Homo sapiens, UniProt P00533, G719S) | kinase binding | KINOMEscan | DMSO control | 100
MAP2K3 (Homo sapiens, UniProt P46734) | kinase binding | KINOMEscan | DMSO control | 88
PRKACB (Homo sapiens, UniProt P22694) | binding | competition with immobilised ligand |  | 100
PRKAA2 (Homo sapiens, UniProt P54646) | kinase binding | KINOMEscan | DMSO control | 91
ERN1 (Homo sapiens, UniProt O75460) | binding | competition with immobilised ligand |  | 100
CDC42BPA (Homo sapiens, UniProt Q5VT25) | kinase binding | KINOMEscan | DMSO control | 95
ERBB3 (Homo sapiens, UniProt P21860) | binding | competition with immobilised ligand |  | 100
EPHA3 (Homo sapiens, UniProt P29320) | kinase binding | KINOMEscan | DMSO control | 60
SBK3 (Homo sapiens, UniProt P0C264) | binding | competition with immobilised ligand |  | 100
ACVR2A (Homo sapiens, UniProt P27037) | binding | competition with immobilised ligand |  | 100
WEE2 (Homo sapiens, UniProt P0C1S8) | binding | competition with immobilised ligand |  | 100

Study 3 — observed: thermal unfolding; technique: differential scanning fluorimetry; tested at: 5.5 µM; direction: higher = more unfolded
SMILES: C[C@@H]1CN(c2ccc(-c3cc(C(=O)NCCOCCOCCOCCOCCNC(=O)/C=C/c4[nH]cc(C(=O)N[C@@H](CC(N)=O)c5ccc(F)c(Cl)c5)c4-c4ccc(Cl)cc4F)ccc3F)cc2NC(=O)c2c[nH]c(=O)cc2C(F)(F)F)C[C@H](C)N1C
WDR5: WD repeat-containing protein 5 (WDR5, Homo sapiens, UniProt P61964)
DCAF1: DDB1- and CUL4-associated factor 1 (DCAF1, Homo sapiens, UniProt Q9Y4B6)
UniProt Q9Y4B6, sequence (whole entry, looked up): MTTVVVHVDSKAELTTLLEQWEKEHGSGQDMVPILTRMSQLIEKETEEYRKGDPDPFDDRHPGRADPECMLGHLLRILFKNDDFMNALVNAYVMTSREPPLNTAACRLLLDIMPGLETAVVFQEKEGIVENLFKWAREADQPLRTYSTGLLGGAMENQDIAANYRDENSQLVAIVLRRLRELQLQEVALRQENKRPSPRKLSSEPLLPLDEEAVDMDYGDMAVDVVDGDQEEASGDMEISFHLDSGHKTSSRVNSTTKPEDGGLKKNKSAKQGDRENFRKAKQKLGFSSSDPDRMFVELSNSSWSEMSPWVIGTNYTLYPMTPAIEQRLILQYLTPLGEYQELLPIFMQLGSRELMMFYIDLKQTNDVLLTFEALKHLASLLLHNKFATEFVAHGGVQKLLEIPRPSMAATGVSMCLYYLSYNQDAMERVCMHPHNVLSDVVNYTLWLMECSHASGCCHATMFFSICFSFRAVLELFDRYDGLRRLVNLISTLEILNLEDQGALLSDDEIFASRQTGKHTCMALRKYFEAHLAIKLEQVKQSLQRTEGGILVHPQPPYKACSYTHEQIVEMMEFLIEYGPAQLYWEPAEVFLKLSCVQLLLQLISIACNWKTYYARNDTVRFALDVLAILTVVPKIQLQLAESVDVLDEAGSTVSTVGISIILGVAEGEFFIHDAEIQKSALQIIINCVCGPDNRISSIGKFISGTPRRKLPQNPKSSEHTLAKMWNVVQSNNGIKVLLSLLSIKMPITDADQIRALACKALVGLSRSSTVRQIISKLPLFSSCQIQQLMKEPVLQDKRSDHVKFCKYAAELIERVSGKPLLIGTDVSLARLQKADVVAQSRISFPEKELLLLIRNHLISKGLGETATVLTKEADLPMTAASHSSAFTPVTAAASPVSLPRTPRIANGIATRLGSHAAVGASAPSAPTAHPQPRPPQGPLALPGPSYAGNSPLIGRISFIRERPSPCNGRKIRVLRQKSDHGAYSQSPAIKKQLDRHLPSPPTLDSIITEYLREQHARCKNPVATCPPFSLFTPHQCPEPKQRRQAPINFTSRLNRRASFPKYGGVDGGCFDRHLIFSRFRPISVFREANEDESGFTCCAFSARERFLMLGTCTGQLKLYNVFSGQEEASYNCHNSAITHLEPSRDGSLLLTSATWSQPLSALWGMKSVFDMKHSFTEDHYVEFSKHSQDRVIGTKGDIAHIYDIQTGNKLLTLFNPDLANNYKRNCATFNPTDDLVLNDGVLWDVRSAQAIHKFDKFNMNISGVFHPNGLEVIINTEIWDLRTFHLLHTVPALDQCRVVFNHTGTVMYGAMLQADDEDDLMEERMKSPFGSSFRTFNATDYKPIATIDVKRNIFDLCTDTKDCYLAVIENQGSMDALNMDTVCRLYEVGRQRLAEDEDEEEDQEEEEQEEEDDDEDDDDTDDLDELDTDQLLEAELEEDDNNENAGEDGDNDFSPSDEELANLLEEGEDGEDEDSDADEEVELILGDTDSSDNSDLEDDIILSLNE
target | temperature | SYPRO Orange fluorescence [a.u.]
WDR5 | 79.81 °C | 39900
WDR5 | 49.6 °C | 16300
DCAF1 | 92.21 °C | 32600
DCAF1 | 45.6 °C | 13300
WDR5 | 85.41 °C | 52700
WDR5 | 37.2 °C | 13700
WDR5 | 78.81 °C | 36900
WDR5 | 80.01 °C | 40500

Study 4 — Compound: O=C(Nc1ccccc1)Nc1cccc(Oc2ccc3nccn3n2)c1; tested at: 1 µM
target | observed | technique | remaining binding
CIT (Homo sapiens, UniProt O14578) | binding | competition with immobilised ligand | 0%
CDK18 (Homo sapiens, UniProt Q07002) | binding |  | 100%
MET (Homo sapiens, UniProt P08581, Y1235D) | binding |  | 100%
STK36 (Homo sapiens, UniProt Q9NRP7) | binding | competition with immobilised ligand | 100%
IRAK3 (Homo sapiens, UniProt Q9Y616) | binding |  | 99%
CDPK1 (Plasmodium falciparum, UniProt P62344) | binding |  | 81%
CAMK2B (Homo sapiens, UniProt Q13554) | binding |  | 100%
EGFR (Homo sapiens, UniProt P00533, T790M) | binding |  | 100%
STK33 (Homo sapiens, UniProt Q9BYT3) | binding | competition with immobilised ligand | 99%
Myosin-IIIb (MYO3B, Homo sapiens, UniProt Q8WXR4) | binding | competition with immobilised ligand | 100%
NTRK1 (Homo sapiens, UniProt P04629) | binding | competition with immobilised ligand | 100%
PRKCI (Homo sapiens, UniProt P41743) | binding |  | 79%
PIK3C2G (Homo sapiens, UniProt O75747) | binding |  | 100%
FGFR3 (Homo sapiens, UniProt P22607) |  | cell-free binding | 100%
SRPK2 (Homo sapiens, UniProt P78362) | binding |  | 97%
Ribosomal protein S6 kinase alpha-1, N-terminal kinase domain (RPS6KA1, Homo sapiens, UniProt Q15418) | binding | competition with immobilised ligand | 100%

A few entries again (study 1):
refers to | log2 fold change
MXD1 mRNA | 2.27
PRR7 mRNA | -1.38
ZNF841 mRNA | 0.891
KIF21B mRNA | -1.39
MARCHF4 mRNA | -1.3
CACNA2D3 mRNA | -3.27
P3H3 | -1.11
TREM1 mRNA | 2.9
